Results of several laboratories.
Numbered parts are unrelated; each lists some results of a single study. Positions count from the first letter of the parent shown.

Study 1 — technique: RNA Bind-n-Seq; form: RNA; matrix: in vitro; tested at: 365 nM; baseline: no-protein control; direction: higher = stronger binding
Target: RNA binding protein fox-1 homolog 2, RRM domain, GST-SBP tag (RBFOX2, Homo sapiens, UniProt O43251-10, residues 100-194)
Notes: natural RNA segment, single round, ends assumed
Shared flanks, not repeated: GGGAGUUCUACAGUCCGACGAUC … UGGAAUUCUCGGGUGCCAA
Construct (chain): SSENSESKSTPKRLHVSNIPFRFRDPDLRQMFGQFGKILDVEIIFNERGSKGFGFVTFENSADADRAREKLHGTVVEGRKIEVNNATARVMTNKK
| Oligonucleotide | RBNS enrichment (R) |
| --- | --- |
| CCAUGACAGCUUGGUCAGUGUGCCUAGGCAGGGCACAUUGCCUGGGCAUGUGUAGAGUGAGUGCCCCUGUGAGCUGCUAGGCAAGCAGAGUCUGGCUCUGAGGUGAUGUC | 1.05 |
| UUCUCAACCUCUGCACAGUUGACAUUUUGAGCCAAAUUAUUCUUUGUUGUGGUAGGCAGUCCUGUGCAUUUUAGAAUGUUUGGCAUUAUCUCUGGCCUCCCCCACAAGAU | 1.12 |
| GAGAUUCCUAAUCACUAGUUUCUUGUAUUCAUAAACUCAGAGAUACAGAGGGCUUGGUUUGAAGUUGGGGUGAGAUGAAACCUUUGCUCUGAGCCAAAGCUCUGGGGCCU | 0.359 |
| CUUCCUUGGUCUACAUAAAGAAGACAUGGGUCUGUCAUAGAAUGGGGACAUUAGACUGAAAACUGGGACAACCCCCUUCCUUAUUUUAUAGAGACUAGGAGUUAAGGGGC | 0.604 |
| UUCCUUCCUUUCUUGUCCUGUUUCCCUUCCUGCCCUUGCAGUCCUGAGGUCCUGCAGCCCCGGCCCCUCCUCCGUGACCUGGUGUGGCCAGGCUGCGGGGACGGGAGGGG | 0.675 |
| CAAGGAAAUUUUAAAUUCUGGGACACUGAGUUAGAUGGUAAAUACUGACUUACGAAAGUUGAAUUGGGUGAGGCGGGCAAAUCACCUGAGGUCAGCAGUUUGAGACUAGC | 0.607 |
| GACUCGACAGUCACCGUAAAAUCUGAGUCAGUCACACACAGGCUGUCAGCCACGGCUUCCACUUGCAUGGCUAUUCUAUUUUCACACGUGAGUUUCUGUUGCUGGCUGGC | 2.84 |
| CCUACAUUCCCUGGCCUGGCUCUCCUGUAGCUCUCCUGGGGUUCUGGGAGUUCCCUGAACAUCUGUGUGUGUCCCCCUAUGCUCCAGUAUGGAAGAAUGGGGUGGAGGGU | 0.519 |

Study 2 — technique: protein-binding microarray; form: double-stranded DNA, one strand shown; matrix: in vitro; tested at: not given; direction: higher = stronger binding
Target: Max-binding protein MNT, bHLH-zipper, MAX partner unstated (MNT, Homo sapiens, UniProt Q99583, residues 220-300)
Notes: k-mer, scored over probes, only values ≥0.25
Residues (chain): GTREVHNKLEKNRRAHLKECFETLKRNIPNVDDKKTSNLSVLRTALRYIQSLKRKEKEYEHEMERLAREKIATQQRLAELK
| Oligonucleotide | E-score |
| --- | --- |
| GTGCACAC | 0.304 |
| CTGCGTGA | 0.278 |
| CGTGGCAA | 0.318 |
| ATCACATG | 0.46 |
| CCCCATGC | 0.409 |
| AGGTGGGG | 0.256 |
| CGTGGGCA | 0.347 |
| ACGAGGTC | 0.304 |

Study 3 — technique: protein binding microarray; form: double-stranded DNA, one strand shown; matrix: in vitro; tested at: not given; baseline: not given; direction: higher = stronger binding
Target: Histone acetyltransferase KAT6A, winged helix 1, GST fusion (KAT6A, Homo sapiens, UniProt Q92794, residues 1-85)
Notes: 8-mer, flanks averaged, mean of 2 arrays, mostly near background
Target sequence (chain): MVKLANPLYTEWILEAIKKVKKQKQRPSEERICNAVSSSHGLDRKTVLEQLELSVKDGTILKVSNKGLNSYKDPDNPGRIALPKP
| Oligonucleotide | E-score |
| --- | --- |
| ACCTGGGC | -0.0141 |
| ACTTCAGC | -0.162 |
| AGTATGCG | 0.333 |
| CGAGCGCG | 0.418 |
| CAGTCAAG | -0.244 |
| TAGGGCCA | -0.0454 |
| CGGATTGC | 0.31 |
| ACACGCGG | 0.329 |

Other studies, line by line
Starting sequence: viral docking peptide; CKVKRKLFGSENI; partner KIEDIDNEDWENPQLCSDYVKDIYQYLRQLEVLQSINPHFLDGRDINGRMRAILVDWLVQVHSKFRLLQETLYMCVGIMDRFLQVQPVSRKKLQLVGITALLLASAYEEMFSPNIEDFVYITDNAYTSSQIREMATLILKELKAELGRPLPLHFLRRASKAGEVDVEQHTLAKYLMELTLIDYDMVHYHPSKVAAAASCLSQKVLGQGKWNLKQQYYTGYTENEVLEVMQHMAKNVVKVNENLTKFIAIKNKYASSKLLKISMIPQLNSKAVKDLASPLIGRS
| Change | target | assay | system | setting | how to read | endpoint | value |
| --- | --- | --- | --- | --- | --- | --- | --- |
| CKVKRKLFGSENA [I13A] | CCNB2, cyclin fold, Cln2 fusion (human) | yeast growth competition, sequencing | yeast | weak parent motif | baseline: not given, higher = stronger binding | normalised enrichment score | 0.497 |

A few entries again (study 2):
| Oligonucleotide | E-score |
| --- | --- |
| AGGTGGGG | 0.256 |
| CGTGGGCA | 0.347 |
| ACGAGGTC | 0.304 |
